Assay results collected from several papers.
Parts stem from different laboratories: compare values within a part only. Changes are numbered by the printed parent chain.

Block 1
Target: Histone acetyltransferase KAT6A, both winged helices, GST fusion (KAT6A, Homo sapiens, UniProt Q92794, residues 1-181)
Method: protein binding microarray
Form: double-stranded DNA, one strand shown
Sample: in vitro
Tested at: not given
Notes: 8-mer, flanks averaged, mean of 2 arrays, mostly near background
Reference: not given
Direction: higher = stronger binding
Measurement: E-score
Residues (chain): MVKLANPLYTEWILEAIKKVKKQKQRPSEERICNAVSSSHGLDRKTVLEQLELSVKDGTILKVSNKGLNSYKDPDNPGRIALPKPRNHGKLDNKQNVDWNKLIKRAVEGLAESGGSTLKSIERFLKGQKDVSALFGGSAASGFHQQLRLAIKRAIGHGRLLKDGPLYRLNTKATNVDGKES
AAAATCGC: 0.049
TTGCACAA: -0.0275
AAAATCCT: -0.139
CAGGAGTA: -0.185
CATACATC: -0.103
CATCTACG: 0.126
CTCAGCCA: -0.176
ACGTATGA: 0.0436
AATGTCAT: -0.0235
CCCATTAG: -0.214
CTTCTGAC: -0.189
ATTGTTGG: -0.101
GGTTTCAC: -0.007
ACCGGACA: 0.0503
ATCACGCC: 0.113
GTTACCGA: 0.133
ACTGCTTC: 0.00787
CATTTTAA: -0.0606
GAATTGGC: -0.0586
CCATCCAA: -0.117
ATAATCCG: 0.0295
GCTCCGCA: 0.0852
ATGCGGTG: 0.149
GCTCGTGA: -0.0589
AGCCTCTA: -0.21

Block 2
Target: ABI1, truncated, D143A, DHFR fusion (Arabidopsis thaliana)
Method: DHFR PCA, deep sequencing
Sample: yeast
Notes: methotrexate growth selection, single substitutions
With: (+)-ABA 58 µM
Reference: wild-type fitted maximum
Direction: higher = stronger binding
Measurement: relative binding score
Starting sequence: PYL1, truncated, DHFR fusion (Arabidopsis thaliana); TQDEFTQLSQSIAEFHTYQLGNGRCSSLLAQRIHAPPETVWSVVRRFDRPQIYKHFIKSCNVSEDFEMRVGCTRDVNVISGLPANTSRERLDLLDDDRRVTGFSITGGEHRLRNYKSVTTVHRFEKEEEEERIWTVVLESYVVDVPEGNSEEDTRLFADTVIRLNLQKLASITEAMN
H34L: 86.8%
N114E: 29%
V44R: -4.08%
D3Q: 90.4%
M176F: 65.2%
R74D: 0.0456%
R163H: 67.3%
T101K: 3.74%
D144P: 43.1%
T1Q: 92.6%
I105V: 89.5%
E151A: 88.7%
N165S: 19.8%
F15G: -8.56%
E147K: 79.1%
Q7C: 85.2%
G21L: 81.8%
A13N: 80.3%

Block 3
Target: Sal-like protein 4, full length isoform A (SALL4, Homo sapiens, UniProt Q9UJQ4, residues 1-1053)
Sequence of UniProt Q9UJQ4 (whole entry, looked up): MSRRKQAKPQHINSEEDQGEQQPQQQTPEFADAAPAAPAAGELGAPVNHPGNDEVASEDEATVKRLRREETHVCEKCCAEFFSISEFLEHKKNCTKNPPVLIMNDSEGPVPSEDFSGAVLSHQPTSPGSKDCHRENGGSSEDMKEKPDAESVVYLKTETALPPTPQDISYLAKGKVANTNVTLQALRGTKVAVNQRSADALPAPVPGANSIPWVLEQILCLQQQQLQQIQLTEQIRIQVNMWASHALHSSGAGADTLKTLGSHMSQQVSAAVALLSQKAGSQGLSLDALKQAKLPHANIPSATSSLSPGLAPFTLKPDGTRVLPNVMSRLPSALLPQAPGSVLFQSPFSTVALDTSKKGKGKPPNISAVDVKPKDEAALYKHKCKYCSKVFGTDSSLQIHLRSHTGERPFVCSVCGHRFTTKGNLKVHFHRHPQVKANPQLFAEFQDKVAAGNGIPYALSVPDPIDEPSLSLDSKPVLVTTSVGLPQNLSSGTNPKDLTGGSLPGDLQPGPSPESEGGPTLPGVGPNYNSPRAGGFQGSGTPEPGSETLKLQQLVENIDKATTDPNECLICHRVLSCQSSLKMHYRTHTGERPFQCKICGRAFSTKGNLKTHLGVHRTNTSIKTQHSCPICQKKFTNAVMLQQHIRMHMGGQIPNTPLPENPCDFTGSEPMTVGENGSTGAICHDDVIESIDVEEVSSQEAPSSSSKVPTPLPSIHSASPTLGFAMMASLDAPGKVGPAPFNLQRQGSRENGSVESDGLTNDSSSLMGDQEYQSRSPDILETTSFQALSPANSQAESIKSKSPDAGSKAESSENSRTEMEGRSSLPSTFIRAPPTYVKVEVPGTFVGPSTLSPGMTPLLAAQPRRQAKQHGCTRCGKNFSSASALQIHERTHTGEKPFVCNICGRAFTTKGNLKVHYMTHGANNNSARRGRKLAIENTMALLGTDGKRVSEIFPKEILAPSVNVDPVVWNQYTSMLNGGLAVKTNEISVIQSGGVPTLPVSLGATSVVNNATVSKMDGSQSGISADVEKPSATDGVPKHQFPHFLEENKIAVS
Method: universal PBM
Form: double-stranded DNA, one strand shown
Sample: in vitro
Tested at: 600 nM
Notes: 8-mer, flanks averaged, mean of replicates
Direction: higher = stronger binding
Measurement: E-score
TCCTTGAA: 0.121
ATGCTTCC: -0.0393
AATACCAT: 0.298
ACGGGTCC: -0.344
AGGGCGCG: -0.291
AGATACCT: -0.0877
ACGCTGGC: -0.318
AGCCTCGC: -0.23
AACTAATA: 0.373
AGCCAGAA: -0.159
GTTCCGGA: -0.222
CGATTAAG: 0.208
TAACATTA: 0.364
ACTCCTAT: 0.141
CAGATTAG: -0.0356
AGAAGTCC: -0.0853
ATGACCCG: -0.158
AAGTACAA: 0.18
CCAGTTCA: -0.0731
ATATGCCC: 0.0212
AATGTGCT: 0.154
ACACTCAG: -0.126
AAACATCC: 0.0649

Block 4
Target: RNA binding protein fox-1 homolog 2, RRM domain, GST-SBP tag (RBFOX2, Homo sapiens, UniProt O43251-10, residues 100-194)
Method: RNA Bind-n-Seq
Form: RNA
Sample: in vitro
Tested at: 365 nM
Notes: natural RNA segment, single round, ends assumed
Reference: no-protein control
Direction: higher = stronger binding
Measurement: RBNS enrichment (R)
Constant ends, left off below: GGGAGUUCUACAGUCCGACGAUC … UGGAAUUCUCGGGUGCCAA
Residues (chain): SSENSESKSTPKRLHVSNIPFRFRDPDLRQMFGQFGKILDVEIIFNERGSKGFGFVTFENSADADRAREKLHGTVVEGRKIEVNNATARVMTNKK
CGCCCAGUUUCUGAGGUCAGACGAGUGUCUGCGAUGUCUUCCCGCACUCUAUUCCCCCAGCCUCUUUCUGCUUUCAUGCUCAGCACAUCAUCUUCCUAGGCAGUCUCUUC: 0.705
AUUUUAGUUCACAAACAUAUCCAUAAGAAUGUUUACACAUGGCAGUAUCAAAGCAUAUAAAAUAUUUUCUAUGUAAGUAAAUUGCAUCUUUAUGCUAGUGAACAAAGUAG: 0.513
AUCUCCCAUUUUAACCACUUUUAGAUACUGCUCCUUAUUUAAGUUACCCUUUUAGCAGAUAAUUCGGAGCAUUAUUUAUUUAAAGAAUUUAUAAUUCUACAGUACCUAUU: 0.929
AUUCCAGCAGCACCUUUAAAGCAAUCUUUACCUUAGUUUUUUGAGUUGUUUUACCUUUCAUCCCAAUCUGAAAAGUUUUAAUAAAUGCUGAGCUUAUUCUUAGGGUAUGA: 0.432
UGGGAGGCCGAGGCUGGCAGAUCACUUGAGGCUGGGAGUUAGAGACCAACCUGGCUAACAUGGCAAAACCUCGUCUCUACUAAAAAUACAAAAAUCAGCCCGGCGUGGUG: 0.281
CUCGGAGAAGGAAGCAGAGGGUGUAAUGACUGGCACACCUGGACAGCUUUUCUCCAUCCGCAGACAGCCCUGUUCAGAGAGUACCGAGCACCAGCCCUGUGCGGCUUCCU: 0.633
AUAUUUCUUGUUUGUGAAAUUGAAACCUCUAUAGGCAUCAUAUGCUUCUUGUCUUUAACAAAGUCUUUGUCUUCUAAGAGCAACCCCGCAGUAAACAACAGAGGGGUUGC: 0.39
ACUGGUGUGGAAUUAAACUCUUAUUGGCCAAAUGCCUGUUUUCAUGAGGUGACUUGUAAAGAUUUUGUUAAGCUCAGGAUUUUUAAUAACACAGUUCACAAAACAGUACA: 0.326
AGCUGGAAUUUAUCUAAUCUAUUUUUGUGUUUAAAAAAGCUGUACCUACCAAAUAAAUAAAUAGUUUAUAAAAUGUAUUACUUAAGGUAUUAGCUGAGUUUAGAGUACUU: 0.431
CUGUCAGCAUCCUCACACAGCGCCUCCAUUACAUGGAAAGGGCUGGCUGCAGUCUCAACCAGGAAUGGCCAGAAGCCUCCACAGCUCCAUUACAGUGCUUUGGCUGGCUG: 0.295
GAAUAGGUACUUUUGGAAGUUCAAAGCAAGUGGCAAACUUUCAUAUAAACAUGUUAAAUGCAGGAUAUUUCUGCUUGGGGCAUCUUUGUGAUUUGUACUUUCCUACAAUU: 0.384
ACACACACACACACAUCUUGUACCCCAGACCUCUGGGUAUAAUUUUCAUAAUUGGUGCAGAAAGAAGAAAUGAUCUGAAGAUGUGUUAAAUGGAUUGCAGGGGAAGGAAG: 0.644

Block 5
Target: CCNE1, cyclin fold, Cln2 fusion (human)
Method: yeast growth competition, sequencing
Sample: yeast
Notes: weak parent motif
Reference: not given
Direction: higher = stronger binding
Measurement: normalised enrichment score
Starting sequence: KIF20B docking peptide (human); KRAKRKLYTSEIS
KRAKRKLYTAEIS [S10A]: -0.206
ARAKRKLYTSEIS [K1A]: 0.683
KRAKRKLYTSEIA [S13A]: 0.346
KRAKRKLYTSEAS [I12A]: 0.346
KRAKRKLATSEIS [Y8A]: -0.352
KRAKRALYTSEIS [K6A]: 0.241

Block 6
Target: Ras GTPase-activating protein-binding protein 1, C-terminal RGG region (G3BP1, Homo sapiens, UniProt Q13283)
Sequence of UniProt Q13283 (whole entry, looked up): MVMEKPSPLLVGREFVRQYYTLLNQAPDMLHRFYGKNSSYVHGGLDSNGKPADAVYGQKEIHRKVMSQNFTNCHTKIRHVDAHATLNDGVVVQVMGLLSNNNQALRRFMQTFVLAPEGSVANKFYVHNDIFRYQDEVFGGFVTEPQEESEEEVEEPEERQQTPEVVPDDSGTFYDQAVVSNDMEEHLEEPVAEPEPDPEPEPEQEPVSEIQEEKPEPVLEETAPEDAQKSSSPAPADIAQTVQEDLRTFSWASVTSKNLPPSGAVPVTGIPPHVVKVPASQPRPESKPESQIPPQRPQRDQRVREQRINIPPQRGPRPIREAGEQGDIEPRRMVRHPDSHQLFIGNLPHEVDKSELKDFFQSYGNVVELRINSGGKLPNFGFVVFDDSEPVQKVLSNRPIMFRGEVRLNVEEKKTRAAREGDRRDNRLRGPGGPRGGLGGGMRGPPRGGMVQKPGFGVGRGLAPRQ
Method: RNA Bind-n-Seq
Form: RNA
Sample: in vitro
Tested at: 1 µM
Notes: whole 134-nt RNA, ends assumed
With: 150 mM KCl
Reference: input library
Direction: higher = stronger binding
Measurement: log2 enrichment
Constant ends, left off below: GGGAGUUCUACAGUCCGACGAUC … UGGAAUUCUCGGGUGUCAAGG
UCAAGUCCUGUGCUACACAUCGUAUGUACCGAAUCGGAAAGGUUUUUUUGGUGGAAAGUAUUAUGUUACGCCGUUCGGAUCUGCACUUCC: -1.34
GCAGGAAGUAAAAACAAAUGGAAAUGCUUCGGAUAGUGGCAGGGAAAGGGGUUGCUAAGGAAAGGGUGGGAUGGGAGUGGGUAAAGAGUU: 2.1
UCAAGUCCUGUGCUACACAUCGUAUGUACCGAAUCGGGGAAGGGAAGGAAGGGGAAAGUAUUAUGUUACGCCGUUCGGAUCUGCACUUCC: 0.99
UCCUGUGCUACACAUCGUAUGUACCGAAUCGGGAAAAAAGGGAAAAAAGGAAAAAAGGGGAAAGUAUUAUGUUACGCCGUUCGGAUCUGC: -1.41
ACCAUGCAGGUGGCCAUCUUUGGGAAGUGGGGCAAGGGGGGGAUAGGGAGGGGGGUAACACUUUGGGAACAGGUGGUCCCAGGUCGUUUC: -1.37
CCUGUGCUACACAUCGUAUGUACCGAAUCGGGGUUUUUGGGGAAAAAGGGGUUUUUGGGGAAAGUAUUAUGUUACGCCGUUCGGAUCUGC: 1.52
AAGUCCUGUGCUACACAUCGUAUGUACCGAAUCGGGAGGGUUUUUGGGAAAAAGGGAAAGUAUUAUGUUACGCCGUUCGGAUCUGCACUU: -0.0197
UCCUGUGCUACACAUCGUAUGUACCGAAUCAAAUUUUUUUAAAUUUAAAUUUUUUUAAAAAAGUAUUAUGUUACGCCGUUCGGAUCUGCA: -1.17
UCCUCAAGUCCUGUGCUACACAUCGUAUGUACCGAAUCGGAGGAGGGGAGGAAAGUAUUAUGUUACGCCGUUCGGAUCUGCACUUCCAGC: -1.36
ACCAUGCAGAAAGGCAUCUUUGGGAAGUGGGGCAAGGGGGGGAUAGGGAGGGGGGUAACACUUUGGGAACAGGUGGUCCCAGGUCGUUUC: -0.812
UGGGAGGUGGAUUUUGUUUAUUUGUUUAGCUCAUUUCCAGGGGUGGGAAUUUUUUUUUAAUAUGUGUCAUGAAUAAAGUUGUUUUUGAAA: 2.91
GCAGGAAGUAAAAACAAAUGGAAAUGCUUCGGAUAGUGGCAGGGGUGGGGGUUGCUAAGGAAAGGGUGGGAUGGGAGUGAGUAAAGAGUU: 1.55
GUGGACAACGCGUACUGGCUGUGGACUUUCCAGGGACGCCUCCUGCAGAAGAACAACAAGGACCGCUUCUGCCAGCUGCUGUGGCGGCCC: -1.07
UCAAGUCCUGUGCUACACAUCGUAUGUACCGAAUCGGAAAAAGGUUUGGAAAGGAAAGUAUUAUGUUACGCCGUUCGGAUCUGCACUUCC: -1.37

For quick reference, copied from above (block 3):
CGATTAAG: 0.208
ATATGCCC: 0.0212
TCCTTGAA: 0.121
AGGGCGCG: -0.291
AGAAGTCC: -0.0853
CCAGTTCA: -0.0731
AGCCAGAA: -0.159
